# Results collected from several papers.
# Numbered parts are unrelated; each lists some results of a single study.

# Sample 1
# Target: Interferon regulatory factor 5, full length, phosphomimetic (IRF5, Homo sapiens, UniProt Q13568-2, residues 1-514, S451D/S453D/S456D/S462D)
# Technique: protein-binding microarray
# Form: double-stranded DNA, one strand shown
# Sample: in vitro
# Concentration: 940 nM top
# Setting: 60-bp whole probe
# With: salmon DNA 0.4 mg/ml
# Relative to: random background probes
# Direction: higher = stronger binding
Strand,fitted relative affinity [z-score]
GCCTAGCACGACGGTATTGACACTGGGGACGTGCTAGTCTTGATTCGCTTGACGCTGCTG,0.134
GCCTAGCACTTCTTTATGTACTCTCTCCATGTGCTAGTCTTGATTCGCTTGACGCTGCTG,1.33
GCCTAGCACTTAGATTTCGGGACTAGATTAGTGCTAGTCTTGATTCGCTTGACGCTGCTG,0.512
GCCTAGCACCGAGATCTCCGAGATGCCTTCGTGCTAGTCTTGATTCGCTTGACGCTGCTG,-0.299

# Sample 2
# Target: Histone acetyltransferase KAT6A, winged helix 1, GST fusion (KAT6A, Homo sapiens, UniProt Q92794, residues 1-85)
# Technique: protein binding microarray
# Form: double-stranded DNA, one strand shown
# Sample: in vitro
# Concentration: not given
# Setting: 8-mer, flanks averaged, mean of 2 arrays, mostly near background
# Relative to: not given
# Direction: higher = stronger binding
# Construct (chain): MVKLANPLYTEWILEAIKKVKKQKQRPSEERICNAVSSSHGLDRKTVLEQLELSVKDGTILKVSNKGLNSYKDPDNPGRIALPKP
Strand,E-score
TCCACGGA,0.237
TCGCTAAA,0.0321
ATGGTCTG,-0.106
ACCACATA,-0.229

# Sample 3
# Target: Sal-like protein 4, full length isoform A (SALL4, Homo sapiens, UniProt Q9UJQ4, residues 1-1053)
# UniProt Q9UJQ4, sequence (whole entry, looked up): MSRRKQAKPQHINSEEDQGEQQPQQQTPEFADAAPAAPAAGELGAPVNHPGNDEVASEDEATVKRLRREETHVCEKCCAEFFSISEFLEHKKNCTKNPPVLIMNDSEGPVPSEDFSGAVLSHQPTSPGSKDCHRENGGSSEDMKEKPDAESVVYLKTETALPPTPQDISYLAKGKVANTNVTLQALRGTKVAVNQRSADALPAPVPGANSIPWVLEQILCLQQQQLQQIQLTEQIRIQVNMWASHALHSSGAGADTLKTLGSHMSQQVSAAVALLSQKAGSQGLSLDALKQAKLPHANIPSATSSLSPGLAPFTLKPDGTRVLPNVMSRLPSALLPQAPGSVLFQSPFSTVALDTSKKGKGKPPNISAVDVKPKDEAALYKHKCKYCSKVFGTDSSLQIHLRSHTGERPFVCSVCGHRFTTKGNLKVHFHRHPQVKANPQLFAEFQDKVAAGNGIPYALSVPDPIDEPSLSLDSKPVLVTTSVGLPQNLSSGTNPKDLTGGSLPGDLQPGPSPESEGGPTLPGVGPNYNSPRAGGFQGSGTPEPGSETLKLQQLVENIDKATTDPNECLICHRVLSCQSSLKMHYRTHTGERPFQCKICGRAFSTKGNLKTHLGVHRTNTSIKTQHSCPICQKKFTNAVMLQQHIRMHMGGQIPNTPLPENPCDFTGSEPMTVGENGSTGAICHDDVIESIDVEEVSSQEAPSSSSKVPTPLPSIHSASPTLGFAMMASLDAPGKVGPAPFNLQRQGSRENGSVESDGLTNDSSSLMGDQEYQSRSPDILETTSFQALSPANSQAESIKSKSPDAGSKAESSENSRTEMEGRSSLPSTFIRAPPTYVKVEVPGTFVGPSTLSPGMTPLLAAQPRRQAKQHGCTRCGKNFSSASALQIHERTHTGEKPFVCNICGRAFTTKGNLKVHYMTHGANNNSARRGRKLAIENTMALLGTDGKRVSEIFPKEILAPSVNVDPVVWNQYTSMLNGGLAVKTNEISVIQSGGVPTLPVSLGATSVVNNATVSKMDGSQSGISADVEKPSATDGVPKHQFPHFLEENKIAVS
# Technique: universal PBM
# Form: double-stranded DNA, one strand shown
# Sample: in vitro
# Concentration: 600 nM
# Setting: 8-mer, flanks averaged, mean of replicates
# Direction: higher = stronger binding
Strand,E-score
GGAACCAA,-0.219
CCCACGCC,-0.27
CAGGTGCG,-0.158

# Mixed results
Molecule,target,test,test system,setting,scale,quantity,value
"PhoQ, residues 284 288 289 292 302 303 SVTLVV","PhoP, residues 12 14 15 18 19 GQALL (Escherichia coli, UniProt P23836)","Sort-seq, refers to: YFP reporter",E. coli,"PhoQ-PhoP variant library, with: 10 µM Mg2+","relative to: high Mg2+ state, higher = stronger signaling",fold induction,2.67

# For quick reference, copied from above (sample 2):
Strand,E-score
ACCACATA,-0.229
